Measured values from different studies.
Numbered parts are unrelated; each lists some results of a single study.

Block 1
Target: RNA binding protein fox-1 homolog 2, RRM domain, GST-SBP tag (RBFOX2, Homo sapiens, UniProt O43251-10, residues 100-194)
Method: RNA Bind-n-Seq
Molecule type: RNA
Medium: in vitro
Concentration: 365 nM
Setting: natural RNA segment, single round, ends assumed
Reference: no-protein control
Direction: higher = stronger binding
Construct (chain): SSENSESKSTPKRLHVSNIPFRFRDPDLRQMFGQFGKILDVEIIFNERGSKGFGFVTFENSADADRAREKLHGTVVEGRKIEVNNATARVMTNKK
Oligonucleotide | RBNS enrichment (R)
GGGAGUUCUACAGUCCGACGAUCAGAAAUUUAUAAUGAAAAGAAGAUGAAUUUCAUUAUGUAAACGCUCAGGCAUGACUACGCUGUUUGAAACAGACAGAUGUUUACUCUUCCUUGUAAUGAGUAGGUUUGGAUGGAAUUCUCGGGUGCCAA | 1.22
GGGAGUUCUACAGUCCGACGAUCUUGGGUUUUGUUAUAGGCAUCAGUCUAACAAGUCAUUAGGUCACUCGGGAAGGGGGAAAAAGUUUAAAAUGGGGGAAAAAAAGCCAUCUUUUUAAACAAAAAUUAUUUUGUGGAAUUCUCGGGUGCCAA | 0.408
GGGAGUUCUACAGUCCGACGAUCGUUGAAGCUUGAUUUGACCACGCUGUAAUCUCCAGCCUACUGCCAAGUGCAGGGGCCUCCCUACGUUCUGUACCCUAAAUCCCAAGGUCAGGUUGGGGACCAACCUUGGGUGGAAUUCUCGGGUGCCAA | 1.11
GGGAGUUCUACAGUCCGACGAUCUAUUACCAUAGUGCGAUGUUGUUUUGUGCUAUUUUGAACAAUUAAAAAGACUUUUUUUGAAAUAACCUCUGGUAUUUACCCGUGUGUCAAGAGUGUCUUGUGAGCCAGGCUGGAAUUCUCGGGUGCCAA | 0.308

Block 2
Target: Prothrombin, mature alpha-thrombin (F2, Homo sapiens, UniProt P00734)
Method: aptamer microarray, sandwich
Molecule type: DNA with 2'F-ANA
Medium: in vitro
Concentration: 200 nM
Setting: whole 15-mer aptamer, many near background
With: Cy3 exosite-II aptamer, 400 nM
Direction: higher = stronger binding
Oligonucleotide: GGTTGGTGTGGTTGG
Modification | mean fluorescence intensity [a.u.]
2'F-ANA at 1 2 3 5 9 11 12 | 108
2'F-ANA at 1 2 3 4 5 6 9 10 11 14 | 45.2
2'F-ANA at 1 2 3 4 5 7 8 9 11 14 15 | 46.8
2'F-ANA at 1 5 6 7 8 12 13 15 | 95.7
2'F-ANA at 1 2 3 4 5 6 8 9 | 65.3
2'F-ANA at 4 7 8 11 14 15 | 134
2'F-ANA at 2 6 7 9 11 12 | 474

Block 3
Target: Histone acetyltransferase KAT6A, winged helix 1, GST fusion (KAT6A, Homo sapiens, UniProt Q92794, residues 1-85)
Method: protein binding microarray
Molecule type: double-stranded DNA, one strand shown
Medium: in vitro
Concentration: not given
Setting: 8-mer, flanks averaged, mean of 2 arrays, mostly near background
Reference: not given
Direction: higher = stronger binding
Target sequence (chain): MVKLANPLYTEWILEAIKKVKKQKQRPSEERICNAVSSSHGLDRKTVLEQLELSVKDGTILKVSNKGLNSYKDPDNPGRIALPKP
Oligonucleotide | E-score
CTTTTAAC | -0.0265
CTGGTACC | 0.0736
AAAAATGT | -0.0265
CGTGGGCC | 0.213
ATCTGGAG | -0.197

Mixed results
Substance | target | test | system | setting | how to read | endpoint | value
PhoQ, residues 284 288 289 292 302 303 GLASVI | PhoP, residues 12 14 15 18 19 MHTVL (Escherichia coli, UniProt P23836) | Sort-seq, measured: YFP reporter | E. coli | PhoQ-PhoP variant library, with: 10 µM Mg2+ | reference: high Mg2+ state, higher = stronger signaling | fold induction | 7.48

For quick reference, copied from above (block 2):
Modification | mean fluorescence intensity [a.u.]
2'F-ANA at 1 2 3 4 5 7 8 9 11 14 15 | 46.8
